Measured values of several laboratories.
Parts stem from different laboratories: compare values within a part only.

Series 1
Target: Sal-like protein 4, full length isoform B (SALL4, Homo sapiens, UniProt Q9UJQ4-2, residues 1-616)
Method: universal PBM
Molecule type: double-stranded DNA, one strand shown
Matrix: in vitro
Concentration: not given
Notes: 8-mer, flanks averaged, mean of replicates
Direction: higher = stronger binding
Strand	E-score
ACTATAAA	0.309
ATACTAAG	0.183
CTGGCCAC	-0.229
AGAAAATC	0.114
AAGTACCC	-0.107

Series 2
Target: Histone acetyltransferase KAT6A, winged helix 2, GST fusion (KAT6A, Homo sapiens, UniProt Q92794, residues 85-181)
Method: protein binding microarray
Molecule type: double-stranded DNA, one strand shown
Matrix: in vitro
Concentration: not given
Notes: 8-mer, flanks averaged, mean of 2 arrays, mostly near background
Reference: not given
Direction: higher = stronger binding
Residues (chain): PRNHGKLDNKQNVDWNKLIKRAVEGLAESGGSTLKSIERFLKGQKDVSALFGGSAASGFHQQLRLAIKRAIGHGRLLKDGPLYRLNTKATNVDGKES
Strand	E-score
AAGTAACT	0.00956
CTGGGCCA	-0.0828
AGCCTACC	-0.188
GGCCATGA	-0.000315

Series 3
Target: Sox-I, HMG box (Salpingoeca helianthica)
Method: Spec-seq
Molecule type: double-stranded DNA, one strand shown
Matrix: in vitro
Concentration: not given
Notes: whole probe, mean of replicates
Reference: not given
Direction: lower = stronger binding
Construct (chain): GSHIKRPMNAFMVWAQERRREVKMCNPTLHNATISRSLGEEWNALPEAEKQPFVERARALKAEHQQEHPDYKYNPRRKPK
Strand	relative binding energy [ln ratio]
GAGTCGTCTCGTCAGCACCATCGCCCCGTAGAGCACTCAGGTC	1.08
GAGTCGTCTCGTCAGCACTCCTGTTCCGTAGAGCACTCAGGTC	-0.781
GAGTCGTCTCGTCAGCACCTCGGTTCCGTAGAGCACTCAGGTC	0.894
GAGTCGTCTCGTCAGCACCATAGCCCCGTAGAGCACTCAGGTC	0.511

Single results of other studies
Molecule	target	test	test system	conditions	scale	endpoint	value
PhoQ, residues 284 288 289 292 302 303 TNASYF	PhoP, residues 12 14 15 18 19 LYHSL (Escherichia coli, UniProt P23836)	Sort-seq, refers to: YFP reporter	E. coli	PhoQ-PhoP variant library, together with: 10 µM Mg2+	reference: high Mg2+ state, higher = stronger signaling	fold induction	2.6
